Measured values gathered from unrelated publications.
Numbered parts are unrelated; each lists some results of a single study. Positions count from the first letter of the parent shown.

Study 1
Target: RING finger protein unkempt homolog, zinc fingers 1-6, GST-SBP tag (UNK, Homo sapiens, UniProt Q9C0B0, residues 30-357)
Chain of UniProt Q9C0B0 (30-357, looked up): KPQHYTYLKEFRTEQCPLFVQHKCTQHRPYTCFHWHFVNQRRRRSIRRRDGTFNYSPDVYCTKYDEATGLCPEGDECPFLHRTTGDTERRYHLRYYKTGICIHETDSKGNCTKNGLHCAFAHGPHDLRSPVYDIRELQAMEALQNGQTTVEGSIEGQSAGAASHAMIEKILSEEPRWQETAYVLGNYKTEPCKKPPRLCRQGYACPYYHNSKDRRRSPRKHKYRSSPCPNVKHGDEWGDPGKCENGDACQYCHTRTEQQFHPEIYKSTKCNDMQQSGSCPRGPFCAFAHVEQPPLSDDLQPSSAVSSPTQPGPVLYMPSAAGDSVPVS
Method: RNA Bind-n-Seq
Form: RNA
Sample: in vitro
Concentration: not given
Setting: RNA with constant flanks, human-mouse chimeric sites, ends assumed
Relative to: input RNA pool
Reading: higher = stronger binding
| Strand | bound/input enrichment [ratio] |
| --- | --- |
| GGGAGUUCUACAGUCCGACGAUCGAAACAUUUAAAUUUAAAGAAGCUGUUGUUCUAGGAAGUACGGACUUCCUAGAAGAUGAUAUAGAGAAAAUUGUAGAAGAACUGGGGAAAGAAUACAAGGGCAACGCCUACCAUCUGAUGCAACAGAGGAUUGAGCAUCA | 1.17 |
| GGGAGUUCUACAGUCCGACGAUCCACAGAGCAGCACCUACCUCCUCCUUCUUUCCACACCUGCAAACUCUUUUACUUGGGCUGAAUAUUUAGUGUAAUUAACAUCGCAGCUUGAGGGCUCCUGUGGCAAAUUCCCGGAUUAAACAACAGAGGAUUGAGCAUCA | 1.12 |
| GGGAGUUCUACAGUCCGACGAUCUCAACUGACAACAUCAAAUACCAGCCUAAAGGGGGGCAGGUACAAAUUGUUACCAAGAAGAUAGACUUAAGCCAUGUGACAUCCAAAUGUGGCUCUCUGAAGAACAUCCGCCACAGGCCACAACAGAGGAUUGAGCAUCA | 0.215 |
| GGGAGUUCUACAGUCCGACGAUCACAGUUAUAUUGUUGAGUUUCAUUUUCAUAUAUUCUUGUAGUGUCUGCUUGCCUGUGUCUUUUAGUAAAAUAAAAUAAGCCUUUGAAAAUAUUUUAGCAUGGUAUUUUUCUAAAAAUAAACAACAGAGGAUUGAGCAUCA | 5.02 |
| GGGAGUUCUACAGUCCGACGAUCGGACAUCUGUCAAAUUGUUAUGUUCCUGUGAAACAAGUGAACACUCUGAUACACUUCAUUUAGUUGUACAUUUAACUGAUAGAGAAAUGUAAAUAUGUUAAUCCAAGCAAUGUGUCACUUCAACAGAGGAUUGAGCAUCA | 0.472 |
| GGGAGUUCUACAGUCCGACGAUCUGUGCCCCACAAGAUCCUACCUGAGUGUUCAGAUGGGUUGACUCCCUCUCCUUGCCUGAACCCCCCCCCACUGCCCCCCCAUCCCCCAGUGUCGGCUGAGAUGUUGCCUCUGCACGGUUCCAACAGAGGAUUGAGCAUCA | 2.76 |
| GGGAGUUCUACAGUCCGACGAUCGAUGAUAAUCACACAAACAAGUCACUGUUACAUGACCAGCCUUGGGAUUCUUUUCCUGAUUAAUAUUCUCCCUGGAACCACUAGCCAAGGGGAAUCAAGACGACAAGAACCUGGGGACUUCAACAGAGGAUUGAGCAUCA | 0.181 |
| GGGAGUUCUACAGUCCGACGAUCCGCUGGCCCAAGCUGAUGUAAAUGUUUGGCCUCCAUCUCUCAGGCACGUGUGCCUUCUCUUAGUCCCUUCUGGGUUGAUGUUAUGAAUCUCAGUACUGUGGUUUGAAAGCACCAGCUUUGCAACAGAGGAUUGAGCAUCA | 0.47 |
| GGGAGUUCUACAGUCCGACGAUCCUCAGAGAUGUGGCAUAUCAGUAUGUGAAAAAGGGGUCUCGUAUAUUUGUGGAAGGGAAAGUGGACUAUGGCGAGUACAUGGAUAAAAAUAAUGUGAGGCGGCAAGCAACAACAAUCAUACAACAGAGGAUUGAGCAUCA | 0.524 |
| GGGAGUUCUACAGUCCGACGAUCUACUACUGAAUCUGUGAUAUUGGCAAUUAUUAUUAUGGCCAGGGUCAUCCCAUGAAGCCUCAUAGAAUCCGCAUGACUCAUAACUUGCUGCUAAAUUAUGGUUUAUACCGAAAAAUGGAACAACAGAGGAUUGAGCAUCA | 0.236 |
| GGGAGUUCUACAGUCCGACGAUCAAAGCCCAAGUAUUUUGAAAAAACUCGAACAGAUUUGACAAGGGUAGCCAGCUUGGAGUCUAGCAACUUGCCAAUGUGUUUACCAAUCUGGGGGCUUUGUUUUUCUUCCCUUCCUUAAAUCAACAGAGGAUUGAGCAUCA | 0.403 |

Study 2
Target: XBP1, bZIP domain (human)
Method: DHFR protein complementation
Sample: yeast
Setting: single substitutions, most at no-binding floor
Relative to: wild-type JUN-FOS pair
Reading: higher = stronger binding
Parent: JUN, bZIP domain (human); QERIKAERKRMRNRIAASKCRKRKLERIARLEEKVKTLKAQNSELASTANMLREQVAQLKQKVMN; partner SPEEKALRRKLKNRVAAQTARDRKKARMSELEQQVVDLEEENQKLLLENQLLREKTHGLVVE
| Change | binding fitness [natural log] |
| --- | --- |
| I28F | -1.24 |
| E44D | -1.18 |
| V56A | -0.795 |
| L38T | -1.36 |
| L52S | -1.36 |
| N42I | -1.4 |
| K36S | -0.948 |
| L52P | -1.44 |
| S43K | -0.719 |
| K34C | -1.15 |
| E32L | -1.21 |
| S47M | -0.61 |
| E33R | -1.17 |
| A29D | -1.17 |

Study 3
Target: RNA binding protein fox-1 homolog 2, RRM domain, GST-SBP tag (RBFOX2, Homo sapiens, UniProt O43251-10, residues 100-194)
Method: RNA Bind-n-Seq
Form: RNA
Sample: in vitro
Concentration: 365 nM
Setting: natural RNA segment, single round, ends assumed
Relative to: no-protein control
Reading: higher = stronger binding
Residues (chain): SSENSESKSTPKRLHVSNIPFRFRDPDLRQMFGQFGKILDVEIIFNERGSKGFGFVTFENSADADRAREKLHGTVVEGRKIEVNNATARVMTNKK
| Strand | RBNS enrichment (R) |
| --- | --- |
| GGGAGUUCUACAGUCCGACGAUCUACUGCACACAGAUUGUGUACUGCACCCCAGUCCAGGUGACUGGUACCCACUCGAGUUGUGCCGUGCACAACCUGUCCAGUAUAUGCAUGUGGUGGCCCUACUGACUGGUUGGAAUUCUCGGGUGCCAA | 11 |
| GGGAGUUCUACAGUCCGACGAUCUUUGUUGUUAUGGUUUACGUGAUGAAAAGGAGAAAAAACAGAAUCAUACCUGGGUGGAGAGAGGGAGACAAAUAGCCAUAAACUUCAUCCUGGAGAACAAGUUACCAUGCUGGAAUUCUCGGGUGCCAA | 0.511 |
| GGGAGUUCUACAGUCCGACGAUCAGCGAGGCUGGGCUGGCCAGCCACCACUGACUAUACCAACUGGGCCUCUGAUGUUCUUCCAGUGAGGCAUCUCUCUGGGAUGCAGAACUUCCCUCCAUCCACCCCUCUGGUGGAAUUCUCGGGUGCCAA | 0.251 |
| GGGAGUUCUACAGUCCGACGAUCUUCAACCAAGGCCACAUAAUAACCCAGUUAACUUACUCUUUAACCAGGAAUAUUAAGUUCUAUAACUAGUACUCAAGGUUUAACCUUAAAAUUAAGAUUUCCUUAACCUUUGGAAUUCUCGGGUGCCAA | 0.333 |
| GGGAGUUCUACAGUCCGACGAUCCACUUGCCCACUCUUGUUUACUGCCUUGUAUUCUAGUUAUUUGUGUAUUUGUCUCCCUCACUAGAUUAUACGCUCCUUGUGGGCAGGGACUGUGUCUUUUUUCAUCUUUGUGGAAUUCUCGGGUGCCAA | 0.628 |
| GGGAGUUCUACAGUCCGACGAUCCAACUGAUUUUGCUAAGCAGUCUUCCCCUUAUAACACCACAGGCCCUUCUGACACACAAAAAAAUGAAAGUUAAUCCUGGGUACAGCAUACAGUUUUACAUUUAAACGCAUGGAAUUCUCGGGUGCCAA | 0.795 |
| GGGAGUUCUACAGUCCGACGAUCAAGGAGACUUGAUAUUCAGAGAAUCAACAUGUUUUUUAAUGACUAACUGUAAAAGGCCCCUACACGUGACGCCAUCUGGACACCCACUCUGGCGGGGGUGGCACCACCCAUGGAAUUCUCGGGUGCCAA | 0.365 |
| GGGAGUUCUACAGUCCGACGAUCACAUAUAAAAAGGAGACAUGAGAAAGUACUUUUCUCUAGAGCUCCAACACUACUGGCUCUUGCUUUUCUCAAUCCCCAAAGCUUCCCUUGUGACUUCUUAAGGCUCUGUAUGGAAUUCUCGGGUGCCAA | 0.428 |
| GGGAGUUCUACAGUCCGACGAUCAUGAGAUUUAAUCCACCAAGGAGAAUUGGUUGGGUUUGUUUAGCCUCUAAAGUUAUAGAAAGAAUGAUGGUGGUAGUGGAGAGUAAGCCUCUUUGGGACCCUGCUUAGAGUGGAAUUCUCGGGUGCCAA | 0.521 |
| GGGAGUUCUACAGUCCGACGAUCUGCAGAGCCAGGCUUGUACCACAGCUCAGAGGCGUCAAGUUUCCAAUUAAAGCCACUGGAGAAAACCGAAAUGUGUCUCAUCCUUGUAUUUAUUGAUCUUGAUUGUCAGUUGGAAUUCUCGGGUGCCAA | 0.241 |
| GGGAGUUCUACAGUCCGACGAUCUAGGAAAAUAAGAAUUAGGUUUCUUUGAAGAAGGAAUCUUUUAUAACACCUUAACAGUCACCACUGUGCUCAACCAGACAGAUAGUGAAACAGCUUUCUGGGUAAUUCACUGGAAUUCUCGGGUGCCAA | 0.305 |
| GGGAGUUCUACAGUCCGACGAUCGUGUGUUUUCCUCACACACUUUGAUUUGGAGAAUUGGUGCUAGUUGGCAAUAGAUAACUCAGCGUAGAUAGUAUUGCAAAAAGGGGAGGAAAUACACAACAAUAAUAAAUUGGAAUUCUCGGGUGCCAA | 0.825 |

Study 4
Target: CCNA2, cyclin fold, Cln2 fusion (human)
Method: yeast growth competition, sequencing
Sample: yeast
Setting: strong parent motif
Relative to: not given
Reading: higher = stronger binding
Parent: BRCA2 docking peptide (human); PSIKRNLLNEFDR
| Change | normalised enrichment score |
| --- | --- |
| E10A | 2.34 |
| N6H | 1.44 |
| R5V | 1.05 |
| R5K | 3.48 |
| K4P | 1.8 |
| E10M | 1.54 |
| P1R | 6.31 |
| L7H | -0.289 |
| F11V | 1.99 |
| I3R | 2.56 |
| L7F | 1.05 |
| I3T | 4.17 |
| K4L | 2.24 |
| R13T | 5.05 |
| L8T | 3.46 |
| F11A | 1.67 |
| S2N | 5.12 |
| S2I | 3.9 |

For quick reference, copied from above (study 3):
| Strand | RBNS enrichment (R) |
| --- | --- |
| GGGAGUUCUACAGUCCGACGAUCAGCGAGGCUGGGCUGGCCAGCCACCACUGACUAUACCAACUGGGCCUCUGAUGUUCUUCCAGUGAGGCAUCUCUCUGGGAUGCAGAACUUCCCUCCAUCCACCCCUCUGGUGGAAUUCUCGGGUGCCAA | 0.251 |
| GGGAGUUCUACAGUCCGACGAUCUUCAACCAAGGCCACAUAAUAACCCAGUUAACUUACUCUUUAACCAGGAAUAUUAAGUUCUAUAACUAGUACUCAAGGUUUAACCUUAAAAUUAAGAUUUCCUUAACCUUUGGAAUUCUCGGGUGCCAA | 0.333 |
| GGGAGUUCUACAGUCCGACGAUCCACUUGCCCACUCUUGUUUACUGCCUUGUAUUCUAGUUAUUUGUGUAUUUGUCUCCCUCACUAGAUUAUACGCUCCUUGUGGGCAGGGACUGUGUCUUUUUUCAUCUUUGUGGAAUUCUCGGGUGCCAA | 0.628 |
| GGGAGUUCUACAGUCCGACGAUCCAACUGAUUUUGCUAAGCAGUCUUCCCCUUAUAACACCACAGGCCCUUCUGACACACAAAAAAAUGAAAGUUAAUCCUGGGUACAGCAUACAGUUUUACAUUUAAACGCAUGGAAUUCUCGGGUGCCAA | 0.795 |
| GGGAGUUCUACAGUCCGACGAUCAAGGAGACUUGAUAUUCAGAGAAUCAACAUGUUUUUUAAUGACUAACUGUAAAAGGCCCCUACACGUGACGCCAUCUGGACACCCACUCUGGCGGGGGUGGCACCACCCAUGGAAUUCUCGGGUGCCAA | 0.365 |
| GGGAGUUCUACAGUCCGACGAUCACAUAUAAAAAGGAGACAUGAGAAAGUACUUUUCUCUAGAGCUCCAACACUACUGGCUCUUGCUUUUCUCAAUCCCCAAAGCUUCCCUUGUGACUUCUUAAGGCUCUGUAUGGAAUUCUCGGGUGCCAA | 0.428 |
| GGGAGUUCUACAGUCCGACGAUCAUGAGAUUUAAUCCACCAAGGAGAAUUGGUUGGGUUUGUUUAGCCUCUAAAGUUAUAGAAAGAAUGAUGGUGGUAGUGGAGAGUAAGCCUCUUUGGGACCCUGCUUAGAGUGGAAUUCUCGGGUGCCAA | 0.521 |
| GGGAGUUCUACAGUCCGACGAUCUGCAGAGCCAGGCUUGUACCACAGCUCAGAGGCGUCAAGUUUCCAAUUAAAGCCACUGGAGAAAACCGAAAUGUGUCUCAUCCUUGUAUUUAUUGAUCUUGAUUGUCAGUUGGAAUUCUCGGGUGCCAA | 0.241 |
